# Measured values collected from several papers.
# Lines come from different studies, so protocols differ. ± marks the error that the study gave.
SMILES,target or system,test,system,conditions,scale,endpoint,result
CC(C)c1ccc2c(c1)CC[C@H]1[C@](C)(CN)CCC[C@]21C,WM278.1 melanoma (vertical growth phase),"cell viability, MTS",,24 h,,IC50,4.44 ± 0.65 µM
N=C(N)NCCC[C@@H]1NC(=O)[C@H](CCCCNC(=O)CNC(=O)CNC(=O)CNC(=O)CC[C@H](NC(=O)CCOCCOCCOCCOCCNC(=O)c2ccc(NN)nc2)C(=O)NCC(=O)NCC(=O)NCC(=O)NCCCC[C@@H]2NC(=O)[C@@H](Cc3ccccc3)NC(=O)[C@H](CC(=O)O)NC(=O)CNC(=O)[C@H](CCCNC(=N)N)NC2=O)NC(=O)[C@@H](Cc2ccccc2)NC(=O)[C@H](CC(=O)O)NC(=O)CNC1=O [technetium-99m labelled],,γ-counting,"female athymic nude mice, U-87 MG xenograft, kidneys","intravenous, 0.5 h",,tissue uptake,12.3 ± 0.86 %ID/g
CCCCn1cc(C(=O)c2cccc3ccccc23)c2ccccc21,,,blood,"24 h, freeze-thaw and bench-top",,deviation from nominal,≤ 15%
CN1CCCCC1Cn1cc(C(=O)c2cc([N+](=O)[O-])ccc2I)c2ccccc21 (racemic),,,Caco-2,,,Papp,6.2 ×10⁻⁶ cm/s
O=NN1CC[C@@H](c2ccc(F)cc2)[C@H](COc2ccc3c(c2)OCO3)C1,"Salmonella typhimurium, Escherichia coli",preincubation Ames test,,"concentration not given, with and without S9",,mutagenicity,negative
N#Cc1ccccc1-c1cc(-c2ccccn2)cn(-c2ccccc2)c1=O,,,"human, plasma",oral,,unbound fraction,0.0136
c1ccc(CCN2CCCCC2)cc1,"L-type calcium channel dihydropyridine site, rat",binding,rat cerebral cortex,together with: [3H]nitrendipine 0.2 nM,,Ki,> 10 µM
COc1cccc(C2(O)CCCCC2CN(C)C)c1 (stereo not shown),,mitochondrial swelling,BALB/cByJ female mouse liver mitochondria,"30 min, together with: succinate + rotenone",relative to: CaCl2 maximal swelling,EC20,> 800 µM
CNC(C)Cc1ccc2c(c1)OCO2 (racemic),,"Drug Effects Questionnaire, measured: Like Drug",human,"oral, 1.5 mg/kg, mean over session, unit not given",relative to: pre-dose baseline,subjective drug effect rating,47.8
CCCCN(N=O)c1cc(C(=O)O)cc(S(N)(=O)=O)c1Oc1ccccc1,"Salmonella typhimurium, Escherichia coli",preincubation Ames test,,"concentration not given, with and without S9",,mutagenicity,negative
O=C(O)CC[C@H](NP(=O)(O)OC[C@H](NC(=O)CC[C@H](NC(=O)c1ccc([18F])cc1)C(=O)O)C(=O)O)C(=O)O,,ex vivo biodistribution,"male NCr nude mice, LNCaP PSMA+ xenograft, kidney",2 h,,tissue uptake,2.24 ± 0.6 %ID/g
N=C(N)NCCC[C@@H]1NC(=O)[C@H](CCCCNC(=O)[C@H](CC(=O)O)NC(=O)[C@H](CC(=O)O)NC(=O)[C@H](CC(=O)O)NC(=O)CC[C@H](NC(=O)CCOCCOCCOCCOCCNC(=O)c2ccc(NN)nc2)C(=O)N[C@@H](CC(=O)O)C(=O)N[C@@H](CC(=O)O)C(=O)N[C@@H](CC(=O)O)C(=O)NCCCC[C@@H]2NC(=O)[C@@H](Cc3ccccc3)NC(=O)[C@H](CC(=O)O)NC(=O)CNC(=O)[C@H](CCCNC(=N)N)NC2=O)NC(=O)[C@@H](Cc2ccccc2)NC(=O)[C@H](CC(=O)O)NC(=O)CNC1=O [technetium-99m labelled],,γ-counting,"female athymic nude mice, U-87 MG xenograft, intestine","intravenous, 1 h",,tissue uptake,7.08 ± 0.92 %ID/g
Cc1ncc(OC[C@@]2(c3cccc(F)c3)C[C@H]2C(=O)Nc2ccc(F)cn2)c(C)n1,,,"human, plasma","10 mg, mean, together with: itraconazole 200 mg",,half-life,118 h
CN[C@@](C)(C[18F])C(=O)O,SK-OV-3 tumour model,,"host not given, bone","1 h, tumour-bearing",,tracer uptake,2.3 %ID/g
Cc1ncc2n1-c1ccc(Cl)cc1C(c1ccccc1F)=NC2,,,"human CYP3A5 expressers, serum","oral, together with: ketoconazole 200 mg",,Tmax,48 min
COc1ccsc1CNCC[C@@]1(c2ccccn2)CCOC2(CCCC2)C1,,,"healthy human, normal hepatic function, plasma","intravenous, 1 mg single dose, arithmetic mean",,volume of distribution (Vz),129 ± 27.9 L
Cc1ncc2n1-c1ccc(Cl)cc1C(c1ccccc1F)=NC2,,,"Sprague Dawley rat, plasma","oral, 15 mg/kg, together with: water pre-treatment 7 days",,t1/2,27 ± 4.8 min
CN1CC[C@@]23CCCC[C@@H]2[C@@H]1Cc1ccc(O)cc13,,,"Wistar rat, both sexes, plasma","oral, 5 mg/kg DEM, DEM 2 h after pretreatment, together with: TCE 400 mg/kg single pretreatment",,Tmax,27.6 ± 11.4 min
CN[C@]1(c2ccccc2Cl)CCCCC1=O,,,human,"intravenous, 0.3 mg/kg, 5 min after tracer, pseudo-steady state",,plasma concentration,62 ng/mL
NC1(c2ccccc2Cl)CCCCC1=O (racemic),,,"male Wistar rats, plasma","intraperitoneal, 40 mg/kg single dose",,Tmax,26.4 ± 28.8 min
COc1ccc2c(c1)[C@]13CCCC[C@@H]1[C@H](C2)N(C)CC3,,,"rat, striatum, hippocampus, cortex","intraperitoneal, 30 mg/kg, three doses, 1 week",,brain 5-HT and 5-HIAA levels,no effect
CCCCCCCCCCC(=O)O[C@H]1CC[C@H]2[C@@H]3CCC4=CC(=O)CC[C@]4(C)[C@H]3CC[C@]12C,,,"human blood, NaF/EDTA tubes","600 ng/mL, 60 min",relative to: no compound added,testosterone change,59.2%
C#Cc1ccc2c(c1)C(c1ccccc1F)=NCc1c(C(=O)OCC)ncn1-2,,metabolic stability,"human, liver microsomes","15 min, pH 7.4",,compound remaining,< 20%
Cc1ncc2n1-c1ccc(Cl)cc1C(c1ccccc1F)=NC2,,,"healthy men, plasma","oral, 7.5 mg, day 19, geometric mean, together with: 7 days post amenamevir",,Cmax,38.8 ng/mL
C[C@H]1CNCCc2ccc(Cl)cc21,,,"male Sprague-Dawley rat, plasma","subcutaneous, 3 mg/kg, single dose",,AUC(0-inf),199 ng·h/mL
COc1ccc2c(c1)[C@]13CCCC[C@@H]1[C@H](C2)N(C)CC3,,,"Wistar rat, both sexes, plasma","oral, 5 mg/kg, 2 h after pretreatment, together with: single TCE 400 mg/kg",,Tmax,29.4 ± 21.6 min
C=C1C[C@@H]2[C@H](CC[C@]3(C)C(=O)CC[C@@H]23)[C@@]2(C)C=CC(=O)C=C12,,LC-MS/MS,"postmenopausal breast cancer women, plasma","oral, 25 mg/day, 2 h, CrCl over 108.5 mL/min",,median plasma concentration,5.9 ng/mL
CC(NC(C)(C)C)C(=O)c1cccc(Cl)c1 (stereo not shown),,,"human, dried blood spots","dose not given, prasugrel alone session",,AUC(0-6 h),49.1 ng·h/mL

# A few entries again:
SMILES,target or system,test,system,conditions,scale,endpoint,result
CC(C)c1ccc2c(c1)CC[C@H]1[C@](C)(CN)CCC[C@]21C,WM278.1 melanoma (vertical growth phase),"cell viability, MTS",,24 h,,IC50,4.44 ± 0.65 µM
N=C(N)NCCC[C@@H]1NC(=O)[C@H](CCCCNC(=O)CNC(=O)CNC(=O)CNC(=O)CC[C@H](NC(=O)CCOCCOCCOCCOCCNC(=O)c2ccc(NN)nc2)C(=O)NCC(=O)NCC(=O)NCC(=O)NCCCC[C@@H]2NC(=O)[C@@H](Cc3ccccc3)NC(=O)[C@H](CC(=O)O)NC(=O)CNC(=O)[C@H](CCCNC(=N)N)NC2=O)NC(=O)[C@@H](Cc2ccccc2)NC(=O)[C@H](CC(=O)O)NC(=O)CNC1=O [technetium-99m labelled],,γ-counting,"female athymic nude mice, U-87 MG xenograft, kidneys","intravenous, 0.5 h",,tissue uptake,12.3 ± 0.86 %ID/g
